Measured values collected from several papers.
Each line is one published result; not all experiments were run side by side. ± gives the spread as reported.
FGFR3: Fibroblast growth factor receptor 3 (FGFR3, Homo sapiens, UniProt P22607)
Sequence of UniProt P22607 (whole entry, looked up): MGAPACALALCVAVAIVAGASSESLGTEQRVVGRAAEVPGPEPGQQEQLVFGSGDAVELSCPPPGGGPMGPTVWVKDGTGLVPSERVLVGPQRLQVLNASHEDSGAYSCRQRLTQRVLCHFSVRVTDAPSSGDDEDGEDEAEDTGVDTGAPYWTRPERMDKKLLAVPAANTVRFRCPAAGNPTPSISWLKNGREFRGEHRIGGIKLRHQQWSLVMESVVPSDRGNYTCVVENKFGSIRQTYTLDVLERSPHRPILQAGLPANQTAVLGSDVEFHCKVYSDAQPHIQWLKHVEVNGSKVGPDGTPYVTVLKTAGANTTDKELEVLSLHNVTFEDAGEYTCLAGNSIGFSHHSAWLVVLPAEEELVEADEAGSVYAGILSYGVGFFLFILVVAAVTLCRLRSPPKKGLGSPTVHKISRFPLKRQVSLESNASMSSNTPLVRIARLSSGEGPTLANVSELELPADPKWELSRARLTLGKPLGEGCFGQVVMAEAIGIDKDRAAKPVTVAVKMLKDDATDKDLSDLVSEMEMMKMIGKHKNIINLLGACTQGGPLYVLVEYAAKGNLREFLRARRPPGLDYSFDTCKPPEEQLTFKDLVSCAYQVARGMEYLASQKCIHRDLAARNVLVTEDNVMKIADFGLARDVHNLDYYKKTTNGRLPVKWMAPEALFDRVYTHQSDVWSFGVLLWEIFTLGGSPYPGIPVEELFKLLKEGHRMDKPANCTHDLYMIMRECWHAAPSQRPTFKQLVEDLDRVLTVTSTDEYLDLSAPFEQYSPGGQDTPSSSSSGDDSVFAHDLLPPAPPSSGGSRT
Sequence of UniProt Q8I2X3 (whole entry, looked up): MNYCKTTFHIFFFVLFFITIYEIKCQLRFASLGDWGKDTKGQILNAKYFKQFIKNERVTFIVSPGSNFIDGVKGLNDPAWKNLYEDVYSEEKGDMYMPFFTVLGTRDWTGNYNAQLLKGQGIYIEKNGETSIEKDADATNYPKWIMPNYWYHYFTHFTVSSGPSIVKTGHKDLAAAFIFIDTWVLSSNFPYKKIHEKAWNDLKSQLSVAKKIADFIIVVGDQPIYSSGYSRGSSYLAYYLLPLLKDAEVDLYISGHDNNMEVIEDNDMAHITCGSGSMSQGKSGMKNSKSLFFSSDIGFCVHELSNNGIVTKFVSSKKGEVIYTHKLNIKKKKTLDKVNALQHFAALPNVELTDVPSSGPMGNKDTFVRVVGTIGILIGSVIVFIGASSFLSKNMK
Sequence of UniProt P22629 (whole entry, looked up): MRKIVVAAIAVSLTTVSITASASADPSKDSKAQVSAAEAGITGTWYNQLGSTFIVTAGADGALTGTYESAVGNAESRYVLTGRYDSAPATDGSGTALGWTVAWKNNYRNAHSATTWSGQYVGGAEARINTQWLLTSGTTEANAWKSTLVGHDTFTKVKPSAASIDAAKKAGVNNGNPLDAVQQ
Sequence of UniProt P0ADV1 (whole entry, looked up): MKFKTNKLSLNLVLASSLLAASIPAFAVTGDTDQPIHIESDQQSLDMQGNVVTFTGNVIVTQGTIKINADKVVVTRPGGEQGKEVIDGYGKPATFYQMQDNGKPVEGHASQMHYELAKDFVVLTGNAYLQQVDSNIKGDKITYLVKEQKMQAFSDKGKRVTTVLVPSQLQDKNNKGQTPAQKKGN
Sequence of UniProt Q16548 (whole entry, looked up): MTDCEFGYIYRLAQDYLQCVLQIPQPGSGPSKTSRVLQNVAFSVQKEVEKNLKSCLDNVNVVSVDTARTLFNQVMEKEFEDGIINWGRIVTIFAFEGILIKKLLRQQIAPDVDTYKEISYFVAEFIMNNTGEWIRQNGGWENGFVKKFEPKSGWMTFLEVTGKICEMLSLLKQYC
Sequence of UniProt A0A109QYD3 (whole entry, looked up): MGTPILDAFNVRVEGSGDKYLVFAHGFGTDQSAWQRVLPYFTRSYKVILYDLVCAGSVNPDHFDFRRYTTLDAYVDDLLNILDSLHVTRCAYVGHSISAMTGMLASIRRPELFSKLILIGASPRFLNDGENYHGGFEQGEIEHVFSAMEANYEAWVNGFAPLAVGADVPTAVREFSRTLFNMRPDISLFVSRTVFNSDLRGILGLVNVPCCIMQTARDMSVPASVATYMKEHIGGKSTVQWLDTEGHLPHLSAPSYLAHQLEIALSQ
Sequence of UniProt P27467 (whole entry, looked up): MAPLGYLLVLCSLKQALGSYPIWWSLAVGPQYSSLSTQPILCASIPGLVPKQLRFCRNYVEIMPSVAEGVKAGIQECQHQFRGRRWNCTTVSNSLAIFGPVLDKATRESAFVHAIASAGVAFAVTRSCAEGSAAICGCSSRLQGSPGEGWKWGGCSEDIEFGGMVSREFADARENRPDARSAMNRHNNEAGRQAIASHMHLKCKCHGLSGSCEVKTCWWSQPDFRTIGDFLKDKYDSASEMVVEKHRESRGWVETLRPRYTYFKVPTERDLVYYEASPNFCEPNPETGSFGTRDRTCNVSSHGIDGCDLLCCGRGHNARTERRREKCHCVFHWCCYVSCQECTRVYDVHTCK
Sequence of UniProt P26038 (whole entry, looked up): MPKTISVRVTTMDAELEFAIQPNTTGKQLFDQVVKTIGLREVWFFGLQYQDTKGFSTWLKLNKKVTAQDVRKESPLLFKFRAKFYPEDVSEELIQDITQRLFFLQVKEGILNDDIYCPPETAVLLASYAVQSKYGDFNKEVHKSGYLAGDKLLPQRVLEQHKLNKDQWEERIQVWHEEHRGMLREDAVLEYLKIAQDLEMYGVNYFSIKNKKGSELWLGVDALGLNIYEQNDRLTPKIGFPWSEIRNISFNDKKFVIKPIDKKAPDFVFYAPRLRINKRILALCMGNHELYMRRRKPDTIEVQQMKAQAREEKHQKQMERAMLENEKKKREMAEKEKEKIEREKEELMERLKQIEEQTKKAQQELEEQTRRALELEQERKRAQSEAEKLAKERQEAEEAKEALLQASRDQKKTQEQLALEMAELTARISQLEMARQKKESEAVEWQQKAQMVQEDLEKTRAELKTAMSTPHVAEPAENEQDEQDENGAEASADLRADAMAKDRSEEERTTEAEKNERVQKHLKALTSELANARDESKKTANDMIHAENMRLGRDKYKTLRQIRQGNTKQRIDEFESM
Sequence of UniProt Q96T88 (whole entry, looked up): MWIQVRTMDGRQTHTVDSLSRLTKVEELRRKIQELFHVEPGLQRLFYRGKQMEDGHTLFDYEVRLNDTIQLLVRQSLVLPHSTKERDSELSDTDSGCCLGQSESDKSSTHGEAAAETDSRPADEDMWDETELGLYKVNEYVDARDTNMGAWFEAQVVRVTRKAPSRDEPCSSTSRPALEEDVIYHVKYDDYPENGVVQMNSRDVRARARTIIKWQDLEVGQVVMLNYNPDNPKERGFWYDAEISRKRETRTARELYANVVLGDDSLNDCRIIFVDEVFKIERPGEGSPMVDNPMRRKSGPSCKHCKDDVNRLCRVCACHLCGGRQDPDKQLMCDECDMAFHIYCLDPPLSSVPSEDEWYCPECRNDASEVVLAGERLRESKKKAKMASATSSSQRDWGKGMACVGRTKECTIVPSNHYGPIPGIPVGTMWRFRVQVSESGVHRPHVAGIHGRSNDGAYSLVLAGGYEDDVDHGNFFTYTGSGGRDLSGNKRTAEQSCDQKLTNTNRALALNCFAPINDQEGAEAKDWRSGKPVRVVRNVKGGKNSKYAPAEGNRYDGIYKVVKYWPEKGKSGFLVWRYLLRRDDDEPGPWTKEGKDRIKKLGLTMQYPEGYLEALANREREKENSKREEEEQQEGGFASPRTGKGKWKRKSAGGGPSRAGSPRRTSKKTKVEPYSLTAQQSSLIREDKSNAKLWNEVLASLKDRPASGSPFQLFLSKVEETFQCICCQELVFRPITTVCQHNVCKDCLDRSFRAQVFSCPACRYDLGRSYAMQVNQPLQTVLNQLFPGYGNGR
Sequence of UniProt Q9Z1N2 (whole entry, looked up): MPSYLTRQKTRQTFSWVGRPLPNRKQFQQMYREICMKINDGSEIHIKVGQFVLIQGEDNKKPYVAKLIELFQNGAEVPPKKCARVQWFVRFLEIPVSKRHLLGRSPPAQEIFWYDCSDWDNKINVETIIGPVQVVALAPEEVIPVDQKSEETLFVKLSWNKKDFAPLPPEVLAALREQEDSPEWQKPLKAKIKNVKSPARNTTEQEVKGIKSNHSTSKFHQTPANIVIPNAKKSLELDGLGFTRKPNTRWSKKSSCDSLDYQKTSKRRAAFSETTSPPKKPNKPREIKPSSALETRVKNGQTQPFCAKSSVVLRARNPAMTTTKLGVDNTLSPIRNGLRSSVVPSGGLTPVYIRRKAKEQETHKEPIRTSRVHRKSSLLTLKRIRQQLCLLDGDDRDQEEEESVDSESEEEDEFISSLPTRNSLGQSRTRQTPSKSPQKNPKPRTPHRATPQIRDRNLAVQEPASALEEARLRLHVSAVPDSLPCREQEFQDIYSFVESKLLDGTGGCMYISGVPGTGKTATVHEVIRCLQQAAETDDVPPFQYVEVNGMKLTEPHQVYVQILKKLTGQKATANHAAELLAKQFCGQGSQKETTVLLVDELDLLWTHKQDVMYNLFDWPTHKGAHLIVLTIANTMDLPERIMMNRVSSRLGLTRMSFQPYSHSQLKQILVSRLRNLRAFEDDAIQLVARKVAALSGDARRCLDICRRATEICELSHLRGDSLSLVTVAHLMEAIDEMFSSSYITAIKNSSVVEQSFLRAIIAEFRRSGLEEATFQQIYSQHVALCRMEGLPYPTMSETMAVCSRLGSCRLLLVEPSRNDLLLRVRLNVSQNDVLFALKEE

| SMILES | target | test | test system | conditions | Kd [nM] |
| --- | --- | --- | --- | --- | --- |
| CC[C@H](C)[C@@H]1NC(=O)[C@H](CC(C)C)NC(=O)[C@H](CCC(=O)O)NC(=O)CNC(=O)CNC(=O)[C@@H](NC(=O)[C@@H](NC(=O)[C@H](CCC(N)=O)NC(=O)[C@H](CC(C)C)NC(=O)[C@H](CCC(N)=O)NC(=O)[C@H](Cc2ccc(O)cc2)NC(=O)[C@@H](N)[C@@H](C)O)C(C)C)CSSC[C@@H]2NC(=O)[C@@H](NC(=O)[C@H](C)NC(=O)[C@H](CC(=O)O)NC(=O)[C@H](C)NC(=O)[C@H](CC(C)C)NC(=O)CN)CSSC[C@H](NC(=O)[C@H](CCC(=O)O)NC(=O)[C@H](CC(N)=O)NC(=O)[C@H](CCCCN)NC2=O)C(=O)N[C@@H](CC(N)=O)C(=O)N[C@@H](CCC(=O)O)C(=O)N[C@@H](CC(N)=O)C(=O)N[C@@H](CCC(=O)O)C(=O)N[C@@H](CC(C)C)C(=O)N[C@@H](CC(=O)O)C(=O)N[C@@H](CCCNC(=N)N)C(=O)N[C@@H](Cc2ccc(O)cc2)C(=O)N[C@H](C(=O)N[C@@H](CC(N)=O)C(N)=O)CSSC[C@@H](C(=O)NCC(=O)N[C@@H](CC(=O)O)C(=O)N[C@@H](CCCNC(=N)N)C(=O)NCC(=O)N[C@H](C(=O)N[C@@H](Cc2ccc(O)cc2)C(=O)N[C@H](C(=O)N2CCC[C@H]2C(=O)N[C@@H](CO)C(=O)N[C@@H](CCCNC(=N)N)C(=O)N[C@@H](CCCNC(=N)N)C(=O)O)[C@@H](C)O)C(C)C)NC(=O)[C@H](Cc2c[nH]cn2)NC(=O)[C@H](CCC(=O)O)NC(=O)[C@H]([C@@H](C)O)NC(=O)[C@H](CC(C)C)NC(=O)[C@H](C)NC(=O)[C@H](CC(=O)O)NC1=O | IGF1R (Homo sapiens, UniProt P08069) | ligand displacement, radioligand | – | – | 41.3 |
| CC[C@H](C)[C@H](NC(=O)[C@H](Cc1ccc(O)cc1)NC(=O)[C@H](CCC(=O)O)NC(=O)[C@H](Cc1c[nH]c2ccccc12)NC(=O)[C@H](CO)NC(=O)[C@H](CO)NC(=O)CNC(=O)CNC(=O)[C@H](CC(=O)O)NC(=O)[C@@H](N)CCC(=O)O)C(=O)N[C@@H](Cc1c[nH]c2ccccc12)C(=O)N[C@H](C(=O)N[C@@H](CC(C)C)C(=O)N1CCC[C@H]1C(=O)N[C@@H](CO)C(=O)NCC(=O)O)[C@@H](C)O | Moesin (Homo sapiens, UniProt P26038) | binding, ITC | – | – | ~45 |
| CC(C)C[C@H](NC(=O)[C@@H](NC(=O)[C@H](CCCCN(C)C)NC(=O)[C@H](CCCNC(=N)N)NC(=O)[C@H](Cc1c[nH]cn1)NC(=O)[C@H](CCCNC(=N)N)NC(=O)[C@H](CCCCN)NC(=O)[C@H](C)NC(=O)CN)C(C)C)C(=O)N[C@@H](CCCNC(=N)N)C(=O)N[C@@H](CC(=O)O)C(=O)N[C@@H](CC(N)=O)C(=O)O | Origin recognition complex subunit 1, BAH domain (Orc1, Mus musculus, UniProt Q9Z1N2) | binding, isothermal titration calorimetry | – | pH 7.5, 5 °C, histone H4 peptide binding | 9600 |
| CSCC[C@H](NC(=O)[C@H](CC(N)=O)NC(=O)[C@H](CCC(=O)O)NC(=O)[C@@H](NC(=O)[C@H](CCCNC(=N)N)NC(=O)[C@H](CO)NC(=O)[C@H](Cc1ccc(O)cc1)NC(=O)[C@@H](N)Cc1c[nH]cn1)[C@@H](C)O)C(=O)NCC(=O)N[C@H](C(=O)N[C@@H](CO)C(=O)N[C@@H](CC(N)=O)C(=O)N[C@@H](C)C(=O)N[C@@H](CS)C(N)=O)[C@@H](C)O | Leishmania secreted acid phosphatase | surface plasmon resonance | – | pH 6.5, 25 °C | 1.48 ± 0.1 |
| CC1=C[C@H](O/C=C2/C(=O)O[C@H]3c4ccccc4C[C@@H]23)OC1=O (racemic) | RMS3 (Lathyrus oleraceus, UniProt A0A109QYD3) | binding, fluorescence | – | – | 71000 |
| C[C@H](N)C(=O)N[C@@H](CCCNC(=N)N)C(=O)N[C@H](C(=O)N[C@@H](CCCCN)C(=O)N[C@@H](CCC(N)=O)C(=O)N[C@H](C(=O)N[C@@H](C)C(=O)N[C@@H](CCCNC(=N)N)C(=O)N[C@@H](CCCCN)C(=O)N[C@@H](CO)C(=O)N[C@H](C(=O)NCC(=O)NCC(=O)N[C@@H](CCCCN)C(=O)N[C@@H](C)C(=O)O)[C@@H](C)O)[C@@H](C)O)[C@@H](C)OP(=O)(O)O | E3 ubiquitin-protein ligase UHRF1, PHD domain (UHRF1, Homo sapiens, UniProt Q96T88) | binding | – | – | > 500000 |
| N=C(N)NCCC[C@H](NC(=O)[C@H](CS)NC(=O)[C@H](Cc1ccc(O)cc1)NC(=O)[C@H](Cc1c[nH]c2ccccc12)NC(=O)[C@H](CCCNC(=N)N)NC(=O)[C@H](Cc1c[nH]c2ccccc12)NC(=O)CNC(=O)[C@H](Cc1c[nH]cn1)NC(=O)CNC(=O)CN)C(N)=O | HCV IV RNA | fluorescein-labelled RNA titration | – | 1 mM TCEP | 10000 ± 2000 |
| CC(C)C[C@@H]1NC(=O)[C@H](C(C)C)NC(=O)[C@H](CC(C)C)NC(=O)[C@H](C(C)C)NC(=O)[C@H](Cc2ccccc2)NC(=O)[C@H](C(C)C)NC(=O)[C@H](CCCNC(=N)N)NC(=O)[C@H](CCCNC(=N)N)NC(=O)[C@H](CC(N)=O)NC(=O)[C@@H]2CCCN2C(=O)[C@H](C(C)C)NC(=O)[C@H](CCCNC(=N)N)NC(=O)[C@H](Cc2ccc(O)cc2)NC(=O)[C@H](CC(C)C)NC(=O)[C@@H](Cc2ccc(O)cc2)NC(=O)CSC[C@@H](C(=O)NCC(N)=O)NC1=O | Protein Wnt-3a, with afamin (Mus musculus, UniProt P27467) | binding, SPR single cycle kinetics | immobilised mWnt3a–human afamin complex | 25 °C | 318 |
| COc1cc2c3cc1Oc1cc(ccc1O)CC1c4c(cc(OC)c(O)c4Oc4ccc(cc4)CC3N(C)CC2)CCN1C (stereo not shown) | Glideosome-associated protein 50 (GAP50, Plasmodium falciparum, UniProt Q8I2X3) | surface plasmon resonance | – | – | < 75000 |
| N=C(N)Nc1ccc(-c2nc3ccc(-c4ccc5nc(-c6ccc(NC(=N)N)cc6)[nH]c5c4)cc3[nH]2)cc1 | r(CAG)12 RNA | binding, microscale thermophoresis | – | – | > 5000 |
| CC[C@H](C)[C@H](NC(=O)[C@H](Cc1ccc(O)cc1)NC(=O)[C@H](CCCNC(=N)N)NC(=O)[C@H](Cc1ccc(O)cc1)NC(=O)[C@H](CCSC)NC(C)=O)C(=O)N[C@H]1CSCc2cccc(c2)CSC[C@@H](C(=O)N[C@@H](CC(C)C)C(=O)N[C@@H](C)C(=O)N[C@@H](CO)C(=O)N[C@@H](Cc2ccc(O)cc2)C(=O)NCC(=O)N[C@@H](CO)C(=O)NCC(=O)N[C@@H](CO)C(=O)NCC(=O)N[C@@H](CO)C(=O)N[C@@H](CC(=O)O)C(=O)N[C@@H](Cc2ccc(O)cc2)C(=O)N[C@@H](CCCCN)C(=O)N[C@@H](CC(=O)O)C(=O)N[C@@H](CC(=O)O)C(=O)N[C@@H](CC(=O)O)C(=O)N[C@@H](CC(=O)O)C(=O)N[C@@H](CCCCN)C(N)=O)NC(=O)[C@H](CC(N)=O)NC(=O)[C@H](CO)NC(=O)[C@H](CC(C)C)NC(=O)[C@H]([C@@H](C)O)NC1=O | FGFR3 | binding, BLI | – | – | 100 |
| CC[C@H](C)[C@H](NC(=O)[C@H](CCCNC(=N)N)NC(=O)[C@H](CCCNC(=N)N)NC(=O)[C@H](CC(C)C)NC(=O)[C@H](CCC(=O)O)NC(=O)[C@H](CCC(N)=O)NC(=O)[C@H](C)NC(=O)[C@@H](NC(=O)[C@H](CNC(=O)CCl)NC(=O)[C@H](CCCNC(=N)N)NC(=O)[C@H](CCCNC(=N)N)NC(=O)[C@@H]1CCCN1C(=O)[C@H](CCCNC(=N)N)NC(=O)[C@H](CCCNC(=N)N)NC(=O)[C@@H]1CCCN1C(=O)[C@H](CCCNC(=N)N)NC(=O)[C@H](CCCNC(=N)N)NC(=O)[C@@H]1CCCN1C(=O)[C@H](CCCNC(=N)N)NC(=O)[C@H](CCCNC(=N)N)NC(=O)[C@@H]1CCCN1C(=O)[C@H](CCCNC(=N)N)NC(=O)[C@H](CCCNC(=N)N)NC(=O)[C@@H]1CCCN1C(C)=O)[C@@H](C)CC)C(=O)NCC(=O)N[C@@H](CC(=O)O)C(=O)N[C@@H](CCC(=O)O)C(=O)N[C@@H](Cc1ccccc1)C(=O)N[C@@H](CC(N)=O)C(=O)N[C@@H](C)C(=O)N[C@@H](Cc1ccc(O)cc1)C(=O)N[C@@H](Cc1ccc(O)cc1)C(=O)N[C@@H](C)C(=O)N[C@@H](CCCNC(=N)N)C(=O)N[C@@H](CCCNC(=N)N)C(N)=O | Bcl-2-related protein A1 (Homo sapiens, UniProt Q16548) | binding, ITC | – | – | 23 |
| CC[C@H](C)[C@H](NC(=O)[C@H](Cc1ccccc1)NC(=O)[C@H](C)NC(=O)[C@@H](N)CCCNC(=N)N)C(=O)N[C@@H](C)C(=O)N[C@@H](CO)C(=O)N[C@@H](CCCNC(=N)N)C(=O)N[C@@H](CCCNC(=N)N)C(=O)N[C@H](C(=O)N[C@@H](CCCNC(=N)N)C(=O)N[C@@H](CCCNC(=N)N)C(=O)N1CCC[C@H]1C(=O)NCC(=O)NCC(=O)NCC(=O)NCC(=O)N[C@@H](CS)C(=O)N[C@@H](CC(C)C)C(=O)N[C@@H](CC(C)C)C(=O)N[C@@H](CCCNC(=N)N)C(=O)N[C@@H](CC(C)C)C(=O)N[C@@H](CCCNC(=N)N)C(=O)N[C@@H](CC(=O)O)C(=O)N[C@H](C(=O)N[C@H](C(=O)N[C@@H](CS)C(=O)N[C@@H](Cc1c[nH]cn1)C(=O)N[C@@H](Cc1ccc(O)cc1)C(=O)N[C@@H](Cc1c[nH]c2ccccc12)C(=O)N[C@H](C(=O)N[C@@H](CCC(N)=O)C(=O)O)[C@@H](C)O)[C@@H](C)O)[C@@H](C)O)[C@@H](C)CC | Streptavidin (Streptomyces avidinii, UniProt P22629) | binding | – | – | 15 |
| CC(C)C[C@H](NC(=O)[C@H](CO)NC(=O)[C@@H]1CCCN1C(=O)[C@H](CCC(N)=O)NC(=O)[C@@H](NC(=O)[C@H](C)NC(=O)[C@H](CCCCN)NC(=O)[C@H](CC(C)C)NC(=O)[C@H](Cc1ccc(O)cc1)NC(=O)[C@H](COP(=O)(O)O)NC(=O)[C@H](CCC(=O)O)NC(=O)[C@H](CCCNC(=N)N)NC(=O)[C@H](CCCNC(=N)N)NC(=O)[C@H](C)NC(=O)[C@H](C)N)[C@@H](C)O)C(=O)O | Membrane-associated guanylate kinase, WW and PDZ domain-containing protein 2, GK domain (Magi2, Mus musculus, UniProt Q9WVQ1) | binding, isothermal titration calorimetry | – | pH 8.0, 25 °C | ~3800 |
| CSCC[C@H](NC(C)=O)C(=O)N[C@@H](CCC(N)=O)C(=O)N[C@H](C(=O)N[C@H]1CSCc2cccc(c2)CSC[C@@H](C(=O)NCC(=O)N[C@@H](Cc2ccc(O)cc2)C(=O)NCC(=O)N[C@@H](CO)C(=O)NCC(=O)N[C@@H](CO)C(=O)NCC(=O)N[C@@H](CO)C(=O)N[C@@H](CC(=O)O)C(=O)N[C@@H](Cc2ccc(O)cc2)C(=O)N[C@@H](CCCCN)C(=O)N[C@@H](CC(=O)O)C(=O)N[C@@H](CC(=O)O)C(=O)N[C@@H](CC(=O)O)C(=O)N[C@@H](CC(=O)O)C(=O)N[C@@H](CCCCN)C(N)=O)NC(=O)[C@H](CC(C)C)NC(=O)[C@H](C(C)C)NC(=O)[C@H](CC(C)C)NC(=O)[C@H](Cc2c[nH]cn2)NC(=O)[C@H](CCC(=O)O)NC(=O)[C@H](CCCCN)NC(=O)[C@H](Cc2ccccc2)NC(=O)[C@H]([C@@H](C)O)NC1=O)[C@@H](C)O | FGFR3 | binding, BLI | – | – | > 10000 |
| CC[C@H](C)[C@H](NC(=O)[C@H](CCCNC(=N)N)NC(=O)[C@@H](NC(=O)[C@@H]1CSSC[C@H](NC(=O)[C@H](C)NC(=O)[C@@H](NC(=O)[C@@H](NC(=O)[C@@H]2CCCN2C(=O)[C@@H](NC(=O)[C@@H]2CCCN2C(=O)[C@H](CCCCN)NC(=O)[C@H](CO)NC(=O)CN)C(C)C)[C@@H](C)CC)[C@@H](C)CC)C(=O)N[C@@H](CC(N)=O)C(=O)N[C@@H](CCCNC(=N)N)C(=O)N[C@@H](CCCCN)C(=O)N[C@@H]([C@@H](C)O)C(=O)NCC(=O)N[C@@H](CCCCN)C(=O)N1)[C@@H](C)O)C(=O)O | lptA (Escherichia coli, UniProt P0ADV1) | binding, BLI | – | – | 0.5 |

Some of these lines once more:
| SMILES | target | test | test system | conditions | Kd [nM] |
| --- | --- | --- | --- | --- | --- |
| CC(C)C[C@@H]1NC(=O)[C@H](C(C)C)NC(=O)[C@H](CC(C)C)NC(=O)[C@H](C(C)C)NC(=O)[C@H](Cc2ccccc2)NC(=O)[C@H](C(C)C)NC(=O)[C@H](CCCNC(=N)N)NC(=O)[C@H](CCCNC(=N)N)NC(=O)[C@H](CC(N)=O)NC(=O)[C@@H]2CCCN2C(=O)[C@H](C(C)C)NC(=O)[C@H](CCCNC(=N)N)NC(=O)[C@H](Cc2ccc(O)cc2)NC(=O)[C@H](CC(C)C)NC(=O)[C@@H](Cc2ccc(O)cc2)NC(=O)CSC[C@@H](C(=O)NCC(N)=O)NC1=O | Protein Wnt-3a, with afamin (Mus musculus, UniProt P27467) | binding, SPR single cycle kinetics | immobilised mWnt3a–human afamin complex | 25 °C | 318 |
| COc1cc2c3cc1Oc1cc(ccc1O)CC1c4c(cc(OC)c(O)c4Oc4ccc(cc4)CC3N(C)CC2)CCN1C (stereo not shown) | Glideosome-associated protein 50 (GAP50, Plasmodium falciparum, UniProt Q8I2X3) | surface plasmon resonance | – | – | < 75000 |
